Measured values pooled from the literature.
Numbered parts are unrelated; each lists some results of a single study. Several values in a cell are separate wells, animals, samples, runs or records.
UniProt Q9NYL2, sequence (whole entry, looked up): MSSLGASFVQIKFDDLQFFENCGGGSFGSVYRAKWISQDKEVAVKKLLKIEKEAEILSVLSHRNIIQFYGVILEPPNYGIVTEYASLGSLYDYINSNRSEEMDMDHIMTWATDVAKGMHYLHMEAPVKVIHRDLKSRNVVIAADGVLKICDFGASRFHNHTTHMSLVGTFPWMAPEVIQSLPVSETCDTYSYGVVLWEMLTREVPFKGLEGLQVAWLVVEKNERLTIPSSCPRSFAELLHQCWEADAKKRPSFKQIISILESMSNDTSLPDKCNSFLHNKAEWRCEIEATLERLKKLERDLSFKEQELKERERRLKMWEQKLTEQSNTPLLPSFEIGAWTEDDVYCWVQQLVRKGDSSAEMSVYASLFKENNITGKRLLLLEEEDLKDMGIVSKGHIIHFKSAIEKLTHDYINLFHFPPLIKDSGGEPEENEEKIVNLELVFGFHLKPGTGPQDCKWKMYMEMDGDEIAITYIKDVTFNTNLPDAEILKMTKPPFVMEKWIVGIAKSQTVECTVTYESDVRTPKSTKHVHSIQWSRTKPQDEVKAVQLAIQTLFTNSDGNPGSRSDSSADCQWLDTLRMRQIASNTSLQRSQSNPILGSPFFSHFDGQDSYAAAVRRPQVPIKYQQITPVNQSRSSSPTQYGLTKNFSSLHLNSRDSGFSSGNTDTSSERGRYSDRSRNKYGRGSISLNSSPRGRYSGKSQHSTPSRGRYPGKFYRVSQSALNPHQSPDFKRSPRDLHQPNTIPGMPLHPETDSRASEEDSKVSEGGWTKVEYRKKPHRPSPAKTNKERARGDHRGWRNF
UniProt Q9H0K1, sequence (whole entry, looked up): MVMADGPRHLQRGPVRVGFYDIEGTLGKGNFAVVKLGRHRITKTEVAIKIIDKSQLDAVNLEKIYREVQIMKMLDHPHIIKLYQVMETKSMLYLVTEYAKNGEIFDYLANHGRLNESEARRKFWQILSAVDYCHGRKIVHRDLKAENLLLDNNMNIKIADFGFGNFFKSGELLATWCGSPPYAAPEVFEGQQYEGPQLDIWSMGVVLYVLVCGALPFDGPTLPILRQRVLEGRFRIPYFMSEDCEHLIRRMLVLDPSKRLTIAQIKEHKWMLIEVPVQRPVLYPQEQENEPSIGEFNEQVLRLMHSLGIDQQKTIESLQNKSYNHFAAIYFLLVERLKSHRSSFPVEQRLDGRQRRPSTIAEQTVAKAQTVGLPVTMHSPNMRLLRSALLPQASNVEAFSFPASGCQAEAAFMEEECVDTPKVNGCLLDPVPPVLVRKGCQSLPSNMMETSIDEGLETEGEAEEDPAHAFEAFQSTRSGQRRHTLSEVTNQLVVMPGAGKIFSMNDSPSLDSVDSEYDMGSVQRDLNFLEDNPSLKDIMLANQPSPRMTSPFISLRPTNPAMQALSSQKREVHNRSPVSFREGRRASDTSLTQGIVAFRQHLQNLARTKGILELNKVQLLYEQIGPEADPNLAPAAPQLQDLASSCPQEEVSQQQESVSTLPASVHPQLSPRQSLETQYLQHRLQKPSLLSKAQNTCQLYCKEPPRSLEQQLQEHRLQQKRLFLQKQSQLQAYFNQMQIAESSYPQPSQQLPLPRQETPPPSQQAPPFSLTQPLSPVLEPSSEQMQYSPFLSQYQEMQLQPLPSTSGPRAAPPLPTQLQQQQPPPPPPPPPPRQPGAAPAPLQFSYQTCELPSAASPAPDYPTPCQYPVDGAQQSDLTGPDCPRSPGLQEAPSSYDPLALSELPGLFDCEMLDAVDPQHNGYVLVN
UniProt O60674, sequence (whole entry, looked up): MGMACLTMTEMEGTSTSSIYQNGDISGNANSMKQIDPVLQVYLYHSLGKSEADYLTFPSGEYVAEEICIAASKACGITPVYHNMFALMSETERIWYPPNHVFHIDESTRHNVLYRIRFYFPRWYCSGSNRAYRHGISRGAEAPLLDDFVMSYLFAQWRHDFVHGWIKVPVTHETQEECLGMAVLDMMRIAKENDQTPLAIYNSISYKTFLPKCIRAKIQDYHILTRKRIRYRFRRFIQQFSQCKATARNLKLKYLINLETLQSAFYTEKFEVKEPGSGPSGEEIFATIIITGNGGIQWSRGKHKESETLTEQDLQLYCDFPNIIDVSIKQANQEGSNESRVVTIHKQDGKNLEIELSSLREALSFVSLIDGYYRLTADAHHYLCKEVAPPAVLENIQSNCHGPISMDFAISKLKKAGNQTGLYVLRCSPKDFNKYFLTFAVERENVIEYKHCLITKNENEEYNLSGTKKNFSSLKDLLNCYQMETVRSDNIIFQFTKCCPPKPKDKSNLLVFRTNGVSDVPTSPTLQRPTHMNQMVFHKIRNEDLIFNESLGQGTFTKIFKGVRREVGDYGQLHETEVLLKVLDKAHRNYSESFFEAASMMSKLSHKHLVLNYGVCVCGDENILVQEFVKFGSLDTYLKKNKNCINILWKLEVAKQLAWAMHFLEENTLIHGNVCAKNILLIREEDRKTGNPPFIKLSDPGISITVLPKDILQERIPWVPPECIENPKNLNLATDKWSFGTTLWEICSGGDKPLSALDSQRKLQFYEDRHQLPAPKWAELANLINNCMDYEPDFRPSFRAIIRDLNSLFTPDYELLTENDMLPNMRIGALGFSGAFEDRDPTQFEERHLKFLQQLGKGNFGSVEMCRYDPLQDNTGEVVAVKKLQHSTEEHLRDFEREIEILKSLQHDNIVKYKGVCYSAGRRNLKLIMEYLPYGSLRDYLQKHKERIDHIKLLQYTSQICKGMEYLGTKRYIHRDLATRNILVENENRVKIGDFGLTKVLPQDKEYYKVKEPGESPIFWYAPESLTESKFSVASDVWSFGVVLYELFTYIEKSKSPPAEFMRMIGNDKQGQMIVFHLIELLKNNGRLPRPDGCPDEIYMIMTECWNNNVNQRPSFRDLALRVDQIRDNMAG
UniProt Q9P286, sequence (whole entry, looked up): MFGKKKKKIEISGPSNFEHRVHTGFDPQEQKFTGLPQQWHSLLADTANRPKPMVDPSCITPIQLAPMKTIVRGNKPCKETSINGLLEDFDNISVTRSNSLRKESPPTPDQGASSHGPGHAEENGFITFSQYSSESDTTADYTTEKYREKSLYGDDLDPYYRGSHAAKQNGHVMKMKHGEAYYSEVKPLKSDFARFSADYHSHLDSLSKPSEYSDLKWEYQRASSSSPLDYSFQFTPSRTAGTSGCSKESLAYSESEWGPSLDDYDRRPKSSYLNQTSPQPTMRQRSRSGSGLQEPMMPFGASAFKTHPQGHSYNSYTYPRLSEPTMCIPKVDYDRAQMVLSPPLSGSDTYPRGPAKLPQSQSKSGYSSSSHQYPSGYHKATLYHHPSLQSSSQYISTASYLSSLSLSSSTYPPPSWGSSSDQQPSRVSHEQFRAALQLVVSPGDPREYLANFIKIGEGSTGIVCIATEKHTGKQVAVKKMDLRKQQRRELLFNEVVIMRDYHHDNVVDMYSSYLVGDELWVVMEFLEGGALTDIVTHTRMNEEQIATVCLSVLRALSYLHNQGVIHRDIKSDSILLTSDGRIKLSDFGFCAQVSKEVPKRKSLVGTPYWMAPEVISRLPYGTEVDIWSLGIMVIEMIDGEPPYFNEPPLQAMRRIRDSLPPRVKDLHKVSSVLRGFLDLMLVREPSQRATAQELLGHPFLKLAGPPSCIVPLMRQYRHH
UniProt P49674, sequence (whole entry, looked up): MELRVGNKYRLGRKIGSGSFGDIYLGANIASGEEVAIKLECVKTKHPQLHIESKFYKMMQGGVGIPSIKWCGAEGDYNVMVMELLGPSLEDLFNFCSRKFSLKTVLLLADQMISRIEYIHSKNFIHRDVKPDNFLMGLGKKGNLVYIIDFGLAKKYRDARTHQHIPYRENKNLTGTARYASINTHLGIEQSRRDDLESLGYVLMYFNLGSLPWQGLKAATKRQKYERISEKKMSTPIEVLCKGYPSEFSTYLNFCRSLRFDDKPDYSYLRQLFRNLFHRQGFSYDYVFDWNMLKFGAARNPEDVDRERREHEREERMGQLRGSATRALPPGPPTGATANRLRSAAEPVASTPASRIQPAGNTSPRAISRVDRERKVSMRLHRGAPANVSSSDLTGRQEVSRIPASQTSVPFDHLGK
UniProt Q14012, sequence (whole entry, looked up): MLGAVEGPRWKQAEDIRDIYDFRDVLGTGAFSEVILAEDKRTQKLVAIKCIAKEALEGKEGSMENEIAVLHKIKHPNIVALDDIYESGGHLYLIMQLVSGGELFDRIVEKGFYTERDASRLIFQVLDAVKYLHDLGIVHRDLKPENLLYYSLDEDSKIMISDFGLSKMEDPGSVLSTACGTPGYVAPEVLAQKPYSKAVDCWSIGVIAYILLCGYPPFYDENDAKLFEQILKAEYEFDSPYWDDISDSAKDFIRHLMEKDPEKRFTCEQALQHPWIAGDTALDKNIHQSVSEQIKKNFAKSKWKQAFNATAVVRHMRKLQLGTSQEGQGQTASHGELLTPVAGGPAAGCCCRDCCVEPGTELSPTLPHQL
UniProt Q04759, sequence (whole entry, looked up): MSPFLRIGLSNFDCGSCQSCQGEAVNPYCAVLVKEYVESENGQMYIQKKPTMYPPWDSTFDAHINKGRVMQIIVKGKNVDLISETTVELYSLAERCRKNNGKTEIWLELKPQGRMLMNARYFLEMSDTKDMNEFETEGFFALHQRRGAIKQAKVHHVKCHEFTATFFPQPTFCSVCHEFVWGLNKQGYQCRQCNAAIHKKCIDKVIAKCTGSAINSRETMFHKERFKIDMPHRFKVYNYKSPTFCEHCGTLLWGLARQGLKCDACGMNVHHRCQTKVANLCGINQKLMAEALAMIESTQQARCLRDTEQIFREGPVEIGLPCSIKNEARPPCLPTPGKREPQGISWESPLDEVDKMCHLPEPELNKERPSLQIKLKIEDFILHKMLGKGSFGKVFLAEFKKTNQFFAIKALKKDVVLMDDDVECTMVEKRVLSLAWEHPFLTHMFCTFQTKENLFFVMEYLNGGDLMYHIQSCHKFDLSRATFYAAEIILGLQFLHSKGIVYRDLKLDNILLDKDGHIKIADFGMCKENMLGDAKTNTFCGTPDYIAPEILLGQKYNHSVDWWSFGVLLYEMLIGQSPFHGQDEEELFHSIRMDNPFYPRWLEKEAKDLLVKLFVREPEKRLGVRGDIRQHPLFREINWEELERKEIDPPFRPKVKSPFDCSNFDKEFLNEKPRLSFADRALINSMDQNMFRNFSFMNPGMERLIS

Series 1
Cell line: HEK-293T/ACE2
Concentration: 10 µM
Time: 16 h
Baseline: vehicle
SMILES	viability
Cc1cccc(Nc2ccncc2S(=O)(=O)NC(=O)NC(C)C)c1	101%
CC(C)C(=O)Oc1ccc(CO)cc1[C@H](CCN(C(C)C)C(C)C)c1ccccc1	99.7%
Cc1ccnc(NS(=O)(=O)c2ccc(N)cc2)n1	100%
Cc1cc(C)nc(NS(=O)(=O)c2ccc(N)cc2)n1	103%
O=C1O[C@H](CO)[C@@H](O)[C@H](O)[C@H]1O	98%
CC(NCCc1ccc(O)cc1)C(O)c1ccc(O)cc1 (stereo not drawn)	100%
Nc1ccc(S(=O)(=O)NC(=O)c2ccccc2)cc1	100%
Nc1nc2c(ncn2COCCO)c(=O)[nH]1	101%
C=CC[C@@H]1/C=C(\C)C[C@H](C)C[C@H](OC)[C@H]2O[C@@](O)(C(=O)C(=O)N3CCCC[C@H]3C(=O)O[C@H](/C(C)=C/[C@@H]3CC[C@@H](O)[C@H](OC)C3)[C@H](C)[C@@H](O)CC1=O)[C@H](C)C[C@@H]2OC	105%
CCOC(=O)[C@H](CCc1ccccc1)N[C@@H](C)C(=O)N1Cc2ccccc2C[C@H]1C(=O)O	99.4%
c1ccc2[nH]c(-c3cscn3)nc2c1	98.7%
C[C@]12CC[C@H]3[C@@H](CCC4=CC(=O)CC[C@@]43C)[C@@H]1CC[C@@H]2O	98.6%
CC[C@@H](CO)NCCN[C@@H](CC)CO	98.1%
CCc1nc(N)nc(N)c1-c1ccc(Cl)cc1	95.5%
C#Cc1cccc(Nc2ncnc3cc(OCCOC)c(OCCOC)cc23)c1	98.2%

Series 2
SMILES: N/C(=N\[N+](=O)[O-])N/N=C\c1ccc(-c2cccc([N+](=O)[O-])c2)o1
Read-out: enzyme activity
Action: inhibitor
Concentration: 0.5 µM
Baseline: control
target	remaining activity
Serine/threonine-protein kinase PAK 5 (PAK5, Homo sapiens, UniProt Q9P286)	97%
Calcium/calmodulin-dependent protein kinase type 1 (CAMK1, Homo sapiens, UniProt Q14012)	106%
Ephrin type-B receptor 3 (EPHB3, Homo sapiens, UniProt P54753)	91.7%
Casein kinase I isoform epsilon (CSNK1E, Homo sapiens, UniProt P49674)	91%
Insulin-like growth factor 1 receptor (IGF1R, Homo sapiens, UniProt P08069)	96.4%
Maternal embryonic leucine zipper kinase (MELK, Homo sapiens, UniProt Q14680)	102%
Vascular endothelial growth factor receptor 1 (FLT1, Homo sapiens, UniProt P17948)	97.6%
Tyrosine-protein kinase JAK2 (JAK2, Homo sapiens, UniProt O60674)	98.8%
Serine/threonine-protein kinase SIK2 (SIK2, Homo sapiens, UniProt Q9H0K1)	91.6%
Tyrosine-protein kinase Yes (YES1, Homo sapiens, UniProt P07947)	95.6%
Protein kinase C zeta type (PRKCZ, Homo sapiens, UniProt Q05513)	90.1%
Protein kinase C theta type (PRKCQ, Homo sapiens, UniProt Q04759)	94.6%
Dual specificity protein kinase CLK2 (CLK2, Homo sapiens, UniProt P49760)	88.3%
Dual specificity protein kinase CLK1 (CLK1, Homo sapiens, UniProt P49759)	105%
Mitogen-activated protein kinase kinase kinase 20 (MAP3K20, Homo sapiens, UniProt Q9NYL2)	98%
Calcium/calmodulin-dependent protein kinase kinase 1 (CAMKK1, Homo sapiens, UniProt Q8N5S9)	106%
Tyrosine-protein kinase Tec (TEC, Homo sapiens, UniProt P42680)	147%
Ribosomal protein S6 kinase beta-2 (RPS6KB2, Homo sapiens, UniProt Q9UBS0)	102%

Series 3
Compound: O=C1CCC(N2Cc3c(ccc4c3OCC43CCN(Cc4ccccc4)CC3)C2=O)C(=O)N1 (stereo not drawn)
Sample: plasma
host	route	dose	Tmax [min]
male CD-1 mouse	oral	3 mg/kg	40.2
ICR mouse, male	intravenous	1.0 mg/kg	4.8
Sprague Dawley rat, male	intravenous	1.0 mg/kg	15
male Sprague-Dawley rat	intravenous	1 mg/kg	8.4
ICR mice, male	oral	3.0 mg/kg	40.2
male CD-1 mouse	intravenous	1 mg/kg	4.8
male Sprague-Dawley rat	oral	3 mg/kg	200

Other studies, line by line
Host: C57BL/6 CES1-/- mouse
Route: intravenous
Dose: 1 mg/kg
Compound	haemoglobin
CC(=O)N[C@@H](Cc1c[nH]c2ccccc12)C(=O)N[C@@H](CCC(=O)C=[N+]=[N-])C(=O)OC(C)C	6.8 g/dL and 7.5 g/dL and 8.1 g/dL
[N-]=[N+]=CC(=O)CC[C@H](N)C(=O)O	8.7 g/dL and 4.9 g/dL and 7.7 g/dL

For quick reference, copied from above (series 2):
target	remaining activity
Tyrosine-protein kinase JAK2 (JAK2, Homo sapiens, UniProt O60674)	98.8%
Serine/threonine-protein kinase SIK2 (SIK2, Homo sapiens, UniProt Q9H0K1)	91.6%
Tyrosine-protein kinase Yes (YES1, Homo sapiens, UniProt P07947)	95.6%
Protein kinase C zeta type (PRKCZ, Homo sapiens, UniProt Q05513)	90.1%
Protein kinase C theta type (PRKCQ, Homo sapiens, UniProt Q04759)	94.6%
